Assay results pooled from the literature.
Each numbered part is a random draw from the data of one study; scales do not carry over between parts.

Study 1
Target: Sal-like protein 4, full length isoform B (SALL4, Homo sapiens, UniProt Q9UJQ4-2, residues 1-616)
Method: universal PBM
Molecule type: double-stranded DNA, one strand shown
Matrix: in vitro
Concentration: not given
Notes: 8-mer, flanks averaged, mean of replicates
Reading: higher = stronger binding
Measurement: E-score
Sequence = TTCAACAA; result = 0.212
Sequence = TGCTCTAA; result = -0.0433
Sequence = AAGTAGCA; result = 0.123
Sequence = AGAAAGTC; result = 0.0839
Sequence = GCCCCGCA; result = -0.356
Sequence = ATTGGTGA; result = 0.198
Sequence = CCCCTCCA; result = -0.149
Sequence = TCTTTACA; result = 0.13
Sequence = CGTGTATC; result = 0.0318
Sequence = TTAGTGAA; result = 0.111
Sequence = CCGCCGGA; result = -0.256
Sequence = CGGCCGCA; result = -0.241
Sequence = AGTAATCG; result = 0.0345
Sequence = AGCACTCC; result = -0.0879
Sequence = ACTGGGGA; result = -0.239
Sequence = CCTATGTA; result = 0.226
Sequence = CGTAAGGA; result = 0.0604
Sequence = CAAAGTCA; result = 0.0679
Sequence = GCACCCGA; result = -0.393
Sequence = TACACTGA; result = 0.0982
Sequence = AGCTAACT; result = 0.0102
Sequence = CTCATTCA; result = 0.0779
Sequence = ACCTAACC; result = -0.099
Sequence = CGCGCAAA; result = 0.0045
Sequence = ATCCCACG; result = -0.207

Study 2
Target: RING finger protein unkempt homolog, zinc fingers 1-6, GST-SBP tag (UNK, Homo sapiens, UniProt Q9C0B0, residues 30-357)
Method: RNA Bind-n-Seq
Molecule type: RNA
Matrix: in vitro
Concentration: not given
Notes: RNA with constant flanks, human-mouse chimeric sites, ends assumed
Reference: input RNA pool
Reading: higher = stronger binding
Measurement: bound/input enrichment
All sequences stand within: GGGAGUUCUACAGUCCGACGAUC … CAACAGAGGAUUGAGCAUCA
Construct (chain): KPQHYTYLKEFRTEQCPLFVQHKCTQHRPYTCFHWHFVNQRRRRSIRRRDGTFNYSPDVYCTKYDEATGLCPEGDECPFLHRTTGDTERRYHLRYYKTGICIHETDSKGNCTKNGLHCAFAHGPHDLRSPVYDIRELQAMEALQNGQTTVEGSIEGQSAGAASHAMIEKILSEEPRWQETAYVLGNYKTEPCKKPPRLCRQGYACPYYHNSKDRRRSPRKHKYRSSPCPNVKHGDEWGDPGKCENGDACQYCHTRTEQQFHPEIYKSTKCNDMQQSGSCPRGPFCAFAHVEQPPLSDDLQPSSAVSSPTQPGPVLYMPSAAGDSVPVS
Sequence = GUAGCUGGGACUACAGAAAUGCUGGUAAUUUCAGUCACUUGCUGAUGACUUCUGAUGUCCCAGCAAAUGUUGGCAUUGUUGACUGCUCUGUGAAGACUUCUGAGGACCCACGUCUAAGGU; result = 0.0797 ratio
Sequence = GUUGCCAGCUUCCGGUUCCGUUGGGCUCGGUUCUCUCCUGAGCUACGUGUCUCUACGUUUUAGGUGUGCCAUCCAACAAACAUGGAUCAGGUAAUGCAGUUUGUGGAUGAGCCAAGUCAG; result = 0.093 ratio
Sequence = AGAGCCCAGGACGUUGAUGCUACAAAUCCAAAUUACGAAAUUAUGUGUAUGAUCAGAGACUUCAGAGGGAGCUUGGAUUACAGACCCUUAACAACAGCAGAUCCUAUUGAUGAACAUAGG; result = 0.374 ratio
Sequence = AAAGAAAAUGGAGAUGUAAAGAUUUUGCUGAAAAGUGGGAAGGAGAAACCAAAAACAAAUAUAGAAGACUUACAAAUUAAAAAAGUAAAGAAGAAAAAGAAAAAGAAACACAAAGAGAAU; result = 14.9 ratio
Sequence = GAGUCGAGCAAACUUGAAACAAUUCGUUAUCUUGCAGCCUCAGUGUUCACUUGCUUGGCGAUAGCAUUGGGGUUUUAUAUAGAUUCUAAGGAGAACUGACGAUGAUGUCCUGCUGUGUGC; result = 0.106 ratio
Sequence = CGCAGAAGGUUAAAGGGUGAGAGUGGGGUGGAAGACUGUGUCAUGGCUCUGGAGACAUUGUUUAGUGUCCUGCUUUCUCUGUGCAGACUGAUGGCCCCUUACACGCCCUUUCUGACUGAG; result = 0.0816 ratio
Sequence = GCUGGAUCUUCUAAGUACCAGUGGGACAUUAUGAAAUCCCUUGGGCUCUCUGAUGACGACAUAGUGAAGUUUUCUGAAGCAGAACAUUGGCUUGAUUAUUUCCCACCACUGGCCGUUCAG; result = 0.228 ratio
Sequence = UCAACAGACAACAUCAAAUACCAGCCUAAAGGGGGGCAGGUACAAAUUGUUACCAAGAAAAUAGACCUAAGCCAUGUGACAUCCAAAUGUGGCUCUCUAAAGAACAUCCGUCACAGGCCA; result = 0.693 ratio
Sequence = UUGAAAAACACAGAUAUCAAAGUUGUUGACUUUGGAAGUGCAACAUAUGAUGAUGAACAUCACAGUACUUUGGUGUCUACCCGGCACUACAGAGCUCCCGAGGUCAUUUUGGCUUUAGGU; result = 0.525 ratio
Sequence = AAAGAAUGGAUAGAGUGUGCACACGGGAUCGGUGGGACUCGGGCAGAAAAGGAGUGCAAGAUAGAGUUCGAUGACUUCGAAGAGUGCUUGCUUCGGUACAAAACGAUGAGGCGAAUGCAU; result = 0.449 ratio
Sequence = CCCUCCCGGGCCACCCAACCCCUCCCGGCUCCCCGCCAGAGCAAGGUUUUCUUCUUAUUUCAUAGCAAAUAAGAAAAAUGUUCUACGCACAUUUUGUCCUCAGUAAACGAGGGCCUCUGG; result = 0.543 ratio

Study 3
Target: Myc proto-oncogene protein, bHLH-zipper, MAX partner unstated (MYC, Homo sapiens, UniProt P01106, residues 368-449)
UniProt P01106, sequence (368-449, looked up): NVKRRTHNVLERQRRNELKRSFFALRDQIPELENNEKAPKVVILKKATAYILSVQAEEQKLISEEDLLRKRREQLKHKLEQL
Method: protein-binding microarray
Molecule type: double-stranded DNA, one strand shown
Matrix: in vitro
Concentration: not given
Notes: k-mer, scored over probes, only values ≥0.25
Reading: higher = stronger binding
Measurement: E-score
Sequence = ACGTGACT; result = 0.351
Sequence = GCGTGCCA; result = 0.357
Sequence = AAAACGTG; result = 0.427
Sequence = ACGCATGA; result = 0.366
Sequence = ACATGCTG; result = 0.426
Sequence = GCACGGGA; result = 0.264
Sequence = GGCACCAC; result = 0.259
Sequence = CACGCGGG; result = 0.469
Sequence = ACCGCGCG; result = 0.348

Study 4
Target: Interferon regulatory factor 3, full length, phosphomimetic (IRF3, Homo sapiens, UniProt Q14653, residues 1-427, S386D/S396D/S398D/S402D/T404D/S405D)
UniProt Q14653, sequence (whole entry, unmodified, looked up): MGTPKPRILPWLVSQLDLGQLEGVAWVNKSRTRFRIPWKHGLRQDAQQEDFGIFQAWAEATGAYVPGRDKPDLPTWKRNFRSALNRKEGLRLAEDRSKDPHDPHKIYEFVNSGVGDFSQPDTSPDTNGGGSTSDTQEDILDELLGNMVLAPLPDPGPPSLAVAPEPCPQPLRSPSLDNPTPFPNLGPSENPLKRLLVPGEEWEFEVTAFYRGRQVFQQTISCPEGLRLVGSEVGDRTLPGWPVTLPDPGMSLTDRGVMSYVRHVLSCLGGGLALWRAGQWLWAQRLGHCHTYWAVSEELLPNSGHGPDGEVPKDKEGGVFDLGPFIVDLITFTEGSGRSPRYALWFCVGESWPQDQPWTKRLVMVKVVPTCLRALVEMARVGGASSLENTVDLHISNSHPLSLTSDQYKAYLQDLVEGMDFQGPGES
Method: protein-binding microarray
Molecule type: double-stranded DNA, one strand shown
Matrix: in vitro
Concentration: 2540 nM top
Notes: 60-bp whole probe
Together with: salmon DNA 0.4 mg/ml
Reference: random background probes
Reading: higher = stronger binding
Measurement: fitted relative affinity
All sequences stand within: GCCTAGCAC … GTCTTGATTCGCTTGACGCTGCTG
Sequence = TTAGGTCTCGGTCTCGGGTAGTGCTAG; result = 0.893 z-score
Sequence = TCATCTCTGTTTATGTCACTGTGCTAG; result = 1.52 z-score
Sequence = TTAGGTTTCGGTATCGGTAAGTGCTAG; result = 9.04 z-score
Sequence = TCATGGCTCCCTATAAAACTGTGCTAG; result = -0.00604 z-score
Sequence = TCAACTCTCTCCATGTGACTGTGCTAG; result = 0.425 z-score
Sequence = TTTGGACTGGGTTTCGGTTAGTGCTAG; result = 2.92 z-score
Sequence = TTAGATCACAGTTTCGATTAGTGCTAG; result = 3.3 z-score
Sequence = GACGATCTCAGTACCGAGACGTGCTAG; result = 0.624 z-score
Sequence = TCAGGCTTAGTTTGTCAAACTGTGCTA; result = -0.321 z-score
Sequence = GACGGACTGGGGAGTGGGGACGTGCTA; result = -0.985 z-score
Sequence = GACGGACTGGGGCTGGGGACGTGCTAG; result = -0.904 z-score
Sequence = GACGAAATGAGTATCGAGACGTGCTAG; result = 0.242 z-score
Sequence = TAAATTTTCACGGTGGGTTCGTGCTAG; result = -0.289 z-score
Sequence = TTAGGACTGGGGACTGTGTTAGTGCTA; result = -1.13 z-score
Sequence = TTAGATATCAGCCTGGATTAGTGCTAG; result = -0.315 z-score
Sequence = GACGGAATCGGACTGGGGACGTGCTAG; result = 0.101 z-score
Sequence = AAAAATGATTGGTTGAACATGTGCTAG; result = -0.0893 z-score

A few entries again (study 4):
Sequence = TTAGGTCTCGGTCTCGGGTAGTGCTAG; result = 0.893 z-score
Sequence = TTTGGACTGGGTTTCGGTTAGTGCTAG; result = 2.92 z-score
Sequence = TTAGGACTGGGGACTGTGTTAGTGCTA; result = -1.13 z-score
Sequence = TCATCTCTGTTTATGTCACTGTGCTAG; result = 1.52 z-score
Sequence = TCAGGCTTAGTTTGTCAAACTGTGCTA; result = -0.321 z-score
Sequence = TCAACTCTCTCCATGTGACTGTGCTAG; result = 0.425 z-score
Sequence = GACGGACTGGGGCTGGGGACGTGCTAG; result = -0.904 z-score
Sequence = TTAGATCACAGTTTCGATTAGTGCTAG; result = 3.3 z-score
Sequence = AAAAATGATTGGTTGAACATGTGCTAG; result = -0.0893 z-score
Sequence = GACGGAATCGGACTGGGGACGTGCTAG; result = 0.101 z-score
